Measurements from different studies.
Compare with care: the assays were run in different laboratories. ± gives the spread as reported.
CYP1A2: Cytochrome P450 1A2 (CYP1A2, Homo sapiens, UniProt P05177)
UniProt P05177, sequence (whole entry, looked up): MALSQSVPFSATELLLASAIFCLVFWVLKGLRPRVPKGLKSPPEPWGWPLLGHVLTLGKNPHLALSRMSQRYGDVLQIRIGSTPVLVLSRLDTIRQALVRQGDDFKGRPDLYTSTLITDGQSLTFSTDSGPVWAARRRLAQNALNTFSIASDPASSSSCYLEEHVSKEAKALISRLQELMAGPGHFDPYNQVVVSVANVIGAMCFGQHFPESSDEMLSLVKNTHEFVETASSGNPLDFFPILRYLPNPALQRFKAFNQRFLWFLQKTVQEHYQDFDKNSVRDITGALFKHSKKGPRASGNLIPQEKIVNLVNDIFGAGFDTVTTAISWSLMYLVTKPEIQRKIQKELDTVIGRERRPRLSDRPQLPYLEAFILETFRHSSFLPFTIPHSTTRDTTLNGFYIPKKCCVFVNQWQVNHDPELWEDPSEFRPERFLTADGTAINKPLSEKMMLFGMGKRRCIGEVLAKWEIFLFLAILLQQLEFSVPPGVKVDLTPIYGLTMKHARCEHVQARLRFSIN
UniProt P03956, sequence (whole entry, looked up): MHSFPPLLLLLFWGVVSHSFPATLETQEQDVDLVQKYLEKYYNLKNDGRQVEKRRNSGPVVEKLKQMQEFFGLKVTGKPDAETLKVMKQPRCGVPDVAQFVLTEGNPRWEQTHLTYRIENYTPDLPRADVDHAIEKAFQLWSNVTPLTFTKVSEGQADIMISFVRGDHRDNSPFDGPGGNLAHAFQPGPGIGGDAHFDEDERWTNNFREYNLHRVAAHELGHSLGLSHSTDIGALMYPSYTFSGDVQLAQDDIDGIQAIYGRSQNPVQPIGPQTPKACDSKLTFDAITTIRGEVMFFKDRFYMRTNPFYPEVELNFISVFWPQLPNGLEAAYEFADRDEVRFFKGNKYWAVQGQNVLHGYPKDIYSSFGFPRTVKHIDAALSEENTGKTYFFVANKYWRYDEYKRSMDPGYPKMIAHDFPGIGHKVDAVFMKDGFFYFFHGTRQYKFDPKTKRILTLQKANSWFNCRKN

`Cc1ncc2n1-c1ccc(Cl)cc1C(c1ccccc1F)=NC2` gave an AUC(0-inf) of 130 ng·h/mL (healthy men, plasma; oral, 7.5 mg, day 19, arithmetic mean, added: 7 days post amenamevir).
With `COc1ccc2c(c1)[C@]13CCCC[C@@H]1[C@H](C2)N(C)CC3` the AUC(0-t) was 126 ± 13.2 ng·h/mL (Wistar rat, both sexes, plasma; oral, 5 mg/kg, 2 h after pretreatment, added: single quinidine 2.5 mg/kg).
For `CN[C@@](C)(C[18F])C(=O)O`, the tracer uptake was 2 %ID/g (DU-145 tumour model; host not given, bone; 30 min, tumour-bearing).
`C=C1C[C@@H]2[C@H](CC[C@]3(C)C(=O)CC[C@@H]23)[C@@]2(C)C=CC(=O)C=C12`: “median plasma concentration” 5 ng/mL (LC-MS/MS; postmenopausal breast cancer women, plasma; oral, 25 mg/day, 2 h, self-reported Black race).
`CC[N+]1=C(C=CC=CC=C2N(CCCCCC(=O)NCCN3C(=O)CC(SC[C@@H](NC(=O)[C@@H](CCCNC(=N)N)NC(=O)[C@@H](CCCNC(=N)N)NC(=O)[C@@H](CCCNC(=N)N)NC(=O)[C@@H](CCCNC(=N)N)NC(=O)[C@@H](CCCNC(=N)N)NC(=O)[C@@H](CCCNC(=N)N)NC(=O)[C@@H](CCCNC(=N)N)NC(=O)[C@@H](CCCNC(=N)N)NC(=O)[C@@H](CCCNC(=N)N)NC(=O)[C@H](CC(C)C)NC(=O)[C@H](CCCCN)NC(=O)[C@H](CC(C)C)NC(=O)[C@H](CCC(N)=O)NC(=O)[C@H](CC(C)C)NC(=O)[C@H](CCCNC(=N)N)NC(=O)CCCCCNC(=O)[C@@H](CCC(=O)O)NC(=O)[C@@H](CCC(=O)O)NC(=O)[C@@H](CCC(=O)O)NC(=O)[C@@H](CCC(=O)O)NC(=O)[C@@H](CCC(=O)O)NC(=O)[C@@H](CCC(=O)O)NC(=O)[C@@H](CCC(=O)O)NC(=O)[C@@H](CCC(=O)O)NC(=O)[C@H](N)CCC(=O)O)C(N)=O)C3=O)c3ccc(S(=O)(=O)O)cc3C2(C)C)C(C)(C)c2cc(S(=O)(=O)[O-])ccc21` (stereo partly drawn) has a cleavage of 9.7 ± 1.1% (Interstitial collagenase (MMP1, Homo sapiens, UniProt P03956); substrate; 5 µM, 2 h).
`CN(N=O)C1CCC(c2ccc(Cl)c(Cl)c2)c2ccccc21` (stereo not drawn): mutagenicity “positive” (Salmonella typhimurium, Escherichia coli; preincubation Ames test; concentration not given, with and without S9).
For `COc1ccsc1CNCC[C@@]1(c2ccccn2)CCOC2(CCCC2)C1`, the half-life was 2.1 h (healthy human, normal hepatic function, plasma; intravenous, 1 mg single dose, geometric mean).
`CCN(N=O)C(C)C` — result for mutagenicity: “positive” (Salmonella typhimurium, Escherichia coli; preincubation Ames test; concentration not given, with and without S9).
With `CNC(=O)O/N=C/C(C)(C)[S+](C)[O-]` (stereo not drawn) the inhibition was < 0% (CYP1A2; inhibitor; human liver microsomes; 2 µM, pH 7.4, added: phenacetin).
Under mutagenicity, `CC(C)[C@H](C(=O)O)N(Cc1ccc(-c2ccccc2-c2nn[nH]n2)cc1)N=O` is recorded as “negative” (Salmonella typhimurium, Escherichia coli; preincubation Ames test; concentration not given, with and without S9).
The SI90 of `Nc1ncnc2c([C@@H]3N[C@H](CO)[C@@H](O)[C@H]3O)c[nH]c12` is reported as 5.5 (Zika virus; Vero 76, PRVABC59; unit not given; reference: CC over EC90).
`CN(CCCC(=O)O)N=O`: mutagenicity “negative” (Salmonella typhimurium, Escherichia coli; preincubation Ames test; concentration not given, with and without S9).
`C[C@H]1CNCCc2ccc(Cl)cc21` has a plasma concentration of 1.2 ± 0.12 ng/mL (Sprague-Dawley rat, male, plasma; subcutaneous, 0.5 mg/kg, 360 min).
`O=NN1CCN(C2CCCC2)CC1`: mutagenicity “positive” (Salmonella typhimurium, Escherichia coli; preincubation Ames test; concentration not given, with and without S9).
`CNC(=O)O/N=C/C(C)(C)SC` has an inhibition of 6.19% (CYP1A2; inhibitor; human liver microsomes; 2 µM, pH 7.4, added: phenacetin).

Excerpt of the above:
With `CNC(=O)O/N=C/C(C)(C)[S+](C)[O-]` (stereo not drawn) the inhibition was < 0% (CYP1A2; inhibitor; human liver microsomes; 2 µM, pH 7.4, added: phenacetin).
